Experimental data collected from several papers.
Every numbered part comes from another study and shows a few of its results, in no order.

Series 1 — method: RNA Bind-n-Seq; form: RNA; matrix: in vitro; concentration: 1 µM; setting: whole 134-nt RNA, ends assumed; together with: 150 mM KCl; baseline: input library; reading: higher = stronger binding
Target: Ras GTPase-activating protein-binding protein 1, RRM domain (G3BP1, Homo sapiens, UniProt Q13283)
Chain of UniProt Q13283 (whole entry, looked up): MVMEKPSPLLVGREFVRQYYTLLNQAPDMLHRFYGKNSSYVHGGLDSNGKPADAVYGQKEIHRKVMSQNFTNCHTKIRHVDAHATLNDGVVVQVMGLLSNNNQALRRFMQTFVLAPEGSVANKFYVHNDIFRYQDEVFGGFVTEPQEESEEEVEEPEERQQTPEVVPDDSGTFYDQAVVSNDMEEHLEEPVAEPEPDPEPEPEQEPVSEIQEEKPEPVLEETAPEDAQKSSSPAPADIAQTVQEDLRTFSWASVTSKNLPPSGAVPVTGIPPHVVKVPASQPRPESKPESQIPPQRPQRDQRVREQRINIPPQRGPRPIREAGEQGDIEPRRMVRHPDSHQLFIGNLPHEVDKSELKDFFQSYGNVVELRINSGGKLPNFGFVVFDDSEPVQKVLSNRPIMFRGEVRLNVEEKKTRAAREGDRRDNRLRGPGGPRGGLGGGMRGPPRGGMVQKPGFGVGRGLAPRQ
Shared flanks, not repeated: GGGAGUUCUACAGUCCGACGAUC … UGGAAUUCUCGGGUGUCAAGG
`AGUCCUGUGCUACACAUCGUAUGUACCGAAUCGGGAGGGUUUUUGGGUUUUUUUGGGAAAGUAUUAUGUUACGCCGUUCGGAUCUGCACU` gave a log2 enrichment of 0.298.
For `CCUGUGCUACACAUCGUAUGUACCGAAUCGGGAAAAAAAGGGUUUUUGGGAAAAAAAGGGAAAGUAUUAUGUUACGCCGUUCGGAUCUGC`, the log2 enrichment was -0.112.
The log2 enrichment of `CUCAAGUCCUGUGCUACACAUCGUAUGUACCGAAUCGGGUGGGUUUGGGAGGGAAAGUAUUAUGUUACGCCGUUCGGAUCUGCACUUCCA` is reported as 0.551.
With `UGGGGAGACUACGAUGACAGCGCCUUCAUGGAGCCCAGGUACCACGUCCGUGGAGAAGAUCUGGACAAGCUCCACAGAGCUGCCUGGUGG` the log2 enrichment was -0.509.
`UGCCUCCCUGCUGCAGAAAUACACCGACAACAGCGAGAAGCCAUCCGGGAAGAGACUGUGCAAAACCAAACACUUGAUCCCUCAGGAGUC` gave a log2 enrichment of -0.101.
For `CACAGACCACACGCACCCACACAGACACAGAGGGAAGGGGUUGGGAUGGGGACAGGGUGCACAGCAGGGCGGGGUAGGACCCCAGCCCCU`, the log2 enrichment was -0.234.
`AGUCCUGUGCUACACAUCGUAUGUACCGAAUCGGGAAAAAGGGAAAAAGGAAAAAGGGAAAGUAUUAUGUUACGCCGUUCGGAUCUGCAC` gave a log2 enrichment of -0.2.
For `UCAAGUCCUGUGCUACACAUCGUAUGUACCGAAUCGGGUGGGUGGGUUUUUGGGAAAGUAUUAUGUUACGCCGUUCGGAUCUGCACUUCC`, the log2 enrichment was 0.699.
`ACCAUGCAGGUGGGCAUCUUUGGGAAGUGAGGCAAGGGGGGGAUAGGGAGGGGGGUAACACUUUGGGAACAGGUGGUCCCAGGUCGUUUC` gave a log2 enrichment of -0.344.

Series 2 — method: protein binding microarray; form: double-stranded DNA, one strand shown; matrix: in vitro; concentration: not given; baseline: not given; reading: higher = stronger binding
Target: Histone acetyltransferase KAT6A, winged helix 2, GST fusion (KAT6A, Homo sapiens, UniProt Q92794, residues 85-181)
Setting: 8-mer, flanks averaged, mean of 2 arrays, mostly near background
Residues (chain): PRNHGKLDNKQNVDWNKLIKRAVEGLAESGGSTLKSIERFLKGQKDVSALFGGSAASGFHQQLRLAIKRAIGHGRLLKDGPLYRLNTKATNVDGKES
`CAGAGACC` has an E-score of -0.126.
`ACATTGGT` gave an E-score of -0.0603.
For `TCGGCTCA`, the E-score was -0.0179.
The E-score of `CACATATG` is reported as -0.187.
For `AAAATGTG`, the E-score was -0.104.
`ACTTGCGC` has an E-score of -0.0671.
With `CATCGCAA` the E-score was 0.00695.
For `GAGTTACA`, the E-score was 0.0678.
For `ACCATGCC`, the E-score was 0.131.
The E-score of `AGCGCAAC` is reported as 0.0395.
For `CGGCACAG`, the E-score was 0.2.
`GACTTTAA` gave an E-score of -0.0612.
`CGCGCCTC` gave an E-score of 0.0735.
For `AAAGGATG`, the E-score was -0.0213.
`GTACCGTA` has an E-score of -0.16.
The E-score of `ATGAATGG` is reported as -0.182.
The E-score of `TAACTTGA` is reported as -0.0109.
With `ACCAGCAC` the E-score was -0.0538.
For `ACTGTGGA`, the E-score was -0.079.
For `CATTTCCG`, the E-score was -0.0713.
With `CACGCCGA` the E-score was 0.079.
`TAGTAAGA` has an E-score of 0.0791.
`GTACGCAC` has an E-score of -0.122.
The E-score of `AAGAAAAG` is reported as -0.0451.

Series 3 — method: RNA Bind-n-Seq; form: RNA; matrix: in vitro; concentration: not given; baseline: input RNA pool; reading: higher = stronger binding
Target: RING finger protein unkempt homolog, zinc fingers 1-6, GST-SBP tag (UNK, Homo sapiens, UniProt Q9C0B0, residues 30-357)
Setting: RNA with constant flanks, human and mouse sites, ends assumed
Shared flanks, not repeated: GGGAGUUCUACAGUCCGACGAUC … CAACAGAGGAUUGAGCAUCA
Residues (chain): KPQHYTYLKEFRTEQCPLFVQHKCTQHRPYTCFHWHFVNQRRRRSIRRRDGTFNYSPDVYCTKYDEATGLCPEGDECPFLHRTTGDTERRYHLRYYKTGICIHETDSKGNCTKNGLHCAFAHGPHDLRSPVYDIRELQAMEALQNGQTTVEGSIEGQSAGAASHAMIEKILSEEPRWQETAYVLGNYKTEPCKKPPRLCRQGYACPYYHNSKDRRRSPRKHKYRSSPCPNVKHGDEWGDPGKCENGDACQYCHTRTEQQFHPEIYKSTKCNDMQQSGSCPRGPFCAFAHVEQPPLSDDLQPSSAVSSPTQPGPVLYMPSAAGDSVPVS
For `AGAUUCAUACUUUAAAGGCAUUGAUAUGCAUUUAUAUCAGGUAAGCAACUAUACAGAUCUGCUGAGAGCUUUGAAAAGAAUCUUUUAUCAGCAAAAAGAAAUAGGGGGAGCCUGAGUAUU`, the bound/input enrichment was 0.206 ratio.
`GGUGUGCAGCUCUACCUAAUGUUGGUUGAGGUUUUCGAGAGCGAAUAUUCAAGGAAGAAAUAUUACUAUGUCGCUGGGUACCUGUUCCCGGCCACAGUGGUCGGCGUCUCAGCAGCCAUU` has a bound/input enrichment of 0.68 ratio.
The bound/input enrichment of `CGGGGGGCUUUCUGUGAAGUAAGACCAGAUGAUAAAAGGAUUCUGGAAUUUUACAGCAAGUUAGGCUGUUUUGAAAUUGCAAAAAUGGAAGGAUUUCCAAAGGAUGUGGUUAUACUUGGU` is reported as 0.788 ratio.
`AAGCUGAAACCUCAUGAGGAGCCUCUCCGUUCUGAGAUCCUCAGUGGGAAGUUUACUAUCUUGAAUGUUCGAGACCCAACUGGAGCCUCCAUUGCCCUCUUCACUGCCAGGUUACACCAC` has a bound/input enrichment of 0.0519 ratio.
`CGCGUCCUGCGCCGGACUCGGAUUGCCAAAAACCUGGAGUUAGAACAAGUGACUGUCCCAAUAGGUGUUUUACUGGUGAUCUUUGAGUCUCGCCCUGACUGUCUACCCCAGGUGGCAGCC` has a bound/input enrichment of 3.16 ratio.
`UGGGAUGAAAAUCUAAAAGAUGAUUCUCUUCCUUCAAAUCCAAUAGAUUUUUCUUACAGAGUAGCUGCUUGUCUUCCUAUUGAUGAUGUAUUGAGAAUUCAGCUCCUUAAAAUUGGCAGU` gave a bound/input enrichment of 1.01 ratio.
`AACAAUAUCAAGGAAGUACUUCUGUUUCCUGCCAUGAAGCCAGAGGACAAGAAGGAAACUGCAGCGACCACUGAAACCCCAGAGAGCACAGAGGCCAGCCCCUCUGUCUAGAAGGCACAU` gave a bound/input enrichment of 0.117 ratio.
`GGAGAGUCUCAGCCAGUGAAAAUGUUUGAUCGCCAUUCUAGCCUUGCAGGGUGCCAGAUUAUCAAUUACCGUACAGAUGCAAAACAAAAGUGGUUACUUCUGACUGGUAUAUCUGCACAG` has a bound/input enrichment of 0.315 ratio.

Series 4 — method: protein-binding microarray; form: double-stranded DNA, one strand shown; matrix: in vitro; concentration: 250 nM; setting: 60-bp whole probe; together with: salmon DNA 0.4 mg/ml; baseline: random background probes; reading: higher = stronger binding; shared flanks, not repeated: GCCTAGCAC … GTCTTGATTCGCTTGACGCTGCTG
Target: Interferon regulatory factor 7, full length, phosphomimetic (IRF7, Homo sapiens, UniProt Q92985, residues 1-503, S101K/S471D/S472D/S475D/S476D/S477D/S483D/S484D/S487D)
Construct (chain): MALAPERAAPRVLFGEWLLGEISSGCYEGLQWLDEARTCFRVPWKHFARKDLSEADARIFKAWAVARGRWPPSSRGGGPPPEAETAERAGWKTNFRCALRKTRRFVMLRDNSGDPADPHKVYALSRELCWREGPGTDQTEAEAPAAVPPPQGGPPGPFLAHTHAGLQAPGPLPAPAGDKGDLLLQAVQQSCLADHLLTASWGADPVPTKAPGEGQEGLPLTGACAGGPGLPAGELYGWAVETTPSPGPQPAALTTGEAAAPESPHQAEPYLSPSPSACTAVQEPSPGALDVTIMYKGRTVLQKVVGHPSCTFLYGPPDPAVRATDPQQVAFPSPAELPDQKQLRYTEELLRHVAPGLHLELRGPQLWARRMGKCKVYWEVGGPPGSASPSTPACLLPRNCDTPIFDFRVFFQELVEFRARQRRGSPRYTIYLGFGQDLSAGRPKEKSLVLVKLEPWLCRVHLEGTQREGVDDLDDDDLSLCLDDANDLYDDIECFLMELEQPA
With `TCACCTATTTATATGAGACTGTGCTAG` the log fluorescence was 1.1 z-score.
With `TTAGAAATCGGGTATCGATTAGTGCTA` the log fluorescence was 0.765 z-score.
For `GTCGATTTCGGGTTTCGAGACGTGCTA`, the log fluorescence was 6.02 z-score.
`TTAGGTATCGGCATCGGTTAGTGCTAG` has a log fluorescence of 0.16 z-score.
`TCATTTTGTGTTTTCATACTGTGCTAG` has a log fluorescence of 1.97 z-score.
With `TTAGATCTCAGACTGGACTAGTGCTAG` the log fluorescence was 0.165 z-score.
With `AATTAAATGATATATATCCATGTGCTA` the log fluorescence was 0.475 z-score.
With `GACGGTATCCTACTGCTAACGTGCTAG` the log fluorescence was -0.0766 z-score.
The log fluorescence of `TCATATATATATTGTTAGACTGTGCTA` is reported as 0.473 z-score.
`TTAGATTCCTGTTTCGATTAGTGCTAG` gave a log fluorescence of 6.48 z-score.
`TTTCCTTTATGTACTCTCTACGTGCTA` has a log fluorescence of 2.41 z-score.
`TTAGGTTTCGGGTTTCTGTTAGTGCTA` gave a log fluorescence of 11.1 z-score.
`GACGATCTCAGTTTAGAGACGTGCTAG` has a log fluorescence of 0.077 z-score.
The log fluorescence of `GACGGTATCGGTCTCGGCACGTGCTAG` is reported as 0.15 z-score.
The log fluorescence of `TTAGAACTGGGGTTGCGATTAGTGCTA` is reported as -0.277 z-score.
The log fluorescence of `CTAGGACTGCTTCTCCTTTAGTGCTAG` is reported as 0.547 z-score.
The log fluorescence of `GACGATTTCGCGTTTCGAGACGTGCTA` is reported as 2.38 z-score.
`CTTGCTCTGTGCATAGGTCTGTGCTAG` has a log fluorescence of -0.431 z-score.
For `GACGATACCGGGTATCGAGACGTGCTA`, the log fluorescence was 0.251 z-score.

For quick reference, copied from above (series 2):
The E-score of `ATGAATGG` is reported as -0.182.
The E-score of `TAACTTGA` is reported as -0.0109.
With `ACCAGCAC` the E-score was -0.0538.
For `ACTGTGGA`, the E-score was -0.079.
